Measurements from different studies.
Numbered parts are unrelated; each lists some results of a single study.

Sample 1 — technique: RNA Bind-n-Seq; form: RNA; matrix: in vitro; tested at: 365 nM; baseline: no-protein control; reading: higher = stronger binding; quantity: RBNS enrichment (R)
Target: RNA binding protein fox-1 homolog 2, RRM domain, GST-SBP tag (RBFOX2, Homo sapiens, UniProt O43251-10, residues 100-194)
Setting: natural RNA segment, single round, ends assumed
All sequences stand within: GGGAGUUCUACAGUCCGACGAUC … UGGAAUUCUCGGGUGCCAA
Construct (chain): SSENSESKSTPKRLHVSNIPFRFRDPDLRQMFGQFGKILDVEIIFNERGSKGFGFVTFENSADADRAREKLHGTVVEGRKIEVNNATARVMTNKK
Strand = GUGUAAAUGUACAUUGUAUAGGUAUUAGUGUGCUCUAGAAAGGACAGGAUGGAAGGAAUCAAAGCACUUUAUCGAGCUUGUGGCUGAGCAUUGCAGCCUAUGUGCAAACC; result = 2.24
Strand = UGUGCACCCUUUGCUCCCUGCUCUUUCUGCCUCUGGGCUCAUGUAUCUGCGCAGCUCUGGUACCCUCUGUGGGUGCCAUCUCUACCUCUGACACAGACUGCCUGCCUUGA; result = 0.946
Strand = CCCUCUGCCGCUGCUUCCAGGCUGGGCAGCACAAGGCCUUGCCUGGCCUGAUGAUGGUGGGUGGGUGGGAUGAGUACCCCCUCAAACCCUGCCCUCCUUAGACCUGAGGG; result = 0.343
Strand = CUUAUAAACUAACGGGGACCGAGGAAUGUAGGGAGUGUUAAAGGAAAGCUAACUUCUAACUUCCUUCCGCUGAGAUGUCUUCUGCUGCCUCAUUUGCAAGAUGUGCAAGC; result = 0.367
Strand = UGCUAUGAUACUGUUUAGCAUUUGCUCUGCUGCCUAUCUUUCUCUGUUUUUAAUUAACAAUUGGAUUUUAUUGGAAGAAGAAAAAGCAGUUUCAUUAUUUUGGAUGAUGA; result = 0.398
Strand = GAAGAAAAAAACAUGGUAGGGAAGGAGCUCUGCUGCCUCUUUGCCCUACAACCAUGGCAUUGCAAAAAUAACCACCUUUUUCUUUUUUUAAAUAAACUUUAUUUAAGUCA; result = 0.656
Strand = CGGGAAAGCGUCCUGUCGGCUGGCCAUGCUGUUGCUUGCGUCUCGAAUCUUCGGUUCUCGAGGAAGUGUUGACAGUGUGAUGCUAAUGUCUGCUUUUCUUGGCGUUGGGU; result = 1.19
Strand = CAUUUUUAUUGUAAUUUUAGCCUUAGCGUGUGGGGGUUUAUCCCUUUUUGUUAGCUGUGUACAGAAUGUGUAUCCUAUCUCCUCCCCUCCUUGGCUAAUCAUUGGCAGGG; result = 0.727
Strand = UUGCUUCCCUCUCCUGUCUUUCCCACUGGAGCCGCCCAAGCUUGUAGGUGGGUGGUGUGCAUAGGCCACGUGUGCCCCACAUAUGCAGGGGGUGCCCCACACAGCUAGAG; result = 1.22
Strand = CAGGACAUGGCAUGCUUUGUGGAUCCCCAUGAUAGUCUACAAAAGCACCCCGCCCCUCUGGGCACUGCCUGGAAGAAUCGGGAGCCUGGCCAGCCUUCAGCUCGCUCCUC; result = 4.21
Strand = AUCAACAACCCUAAUUAUGGUCACAAUGCUACCAAACUGUAGAUGGUAGCUAAUUUUUCUUUACCUAUUUUCUAAUGUCAUGAUUCCUGUUUGCCCAAUGGAUCAUUUGU; result = 8.52
Strand = AACAAUGGAACCCAAACAGAAGGAAGAAAGCCUUGAUACCAAAAUUGGGAGUGAGGAUGUGUCCAUUUGGACCAAACACUUUGUUUUGUUUUAUUUAGAUUUUGUUUUUC; result = 0.299

Sample 2 — technique: protein-binding microarray; form: hairpin DNA; matrix: in vitro; tested at: not given; baseline: not given; reading: higher = stronger binding; quantity: median fluorescence; all sequences stand within: GAGGCCG … CGGCCTCACACTC
Target: Cyclic AMP-responsive element-binding protein 1, full length (CREB1, Homo sapiens, UniProt P16220, residues 1-327)
Sequence of UniProt P16220 (whole entry, looked up): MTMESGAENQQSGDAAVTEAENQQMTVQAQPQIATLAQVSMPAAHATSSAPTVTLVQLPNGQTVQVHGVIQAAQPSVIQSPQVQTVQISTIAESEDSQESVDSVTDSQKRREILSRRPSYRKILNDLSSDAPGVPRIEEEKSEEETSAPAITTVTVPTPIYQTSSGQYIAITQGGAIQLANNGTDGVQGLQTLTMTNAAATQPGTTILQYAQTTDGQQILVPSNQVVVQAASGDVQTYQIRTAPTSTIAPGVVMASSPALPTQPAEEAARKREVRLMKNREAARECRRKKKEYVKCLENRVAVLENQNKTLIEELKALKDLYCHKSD
Setting: whole hairpin DNA, median over replicate spots
Strand = GAGGACGTCAGCCTCCTGGCTGACGTCCTC; result = 4140 a.u.
Strand = ACGCCGTCGTGCCTCCTGGCACGACGGCGT (5mC at 9 15 29 35); result = 3010 a.u.
Strand = GCTAACGTCAGCCTCCTGGCTGACGTTAGC; result = 3940 a.u.
Strand = ACTGACGTCAGCCTCCTGGCTGACGTCAGT; result = 12000 a.u.
Strand = GATGGCGTCAGCCTCCTGGCTGACGCCATC; result = 3940 a.u.
Strand = GATGACGCCAGCCTCCTGGCTGGCGTCATC; result = 5100 a.u.
Strand = GCTGCGGTCAGCCTCCTGGCTGACCGCAGC (5mC at 12); result = 2670 a.u.
Strand = GCCGACGTCAGCCTCCTGGCTGACGTCGGC (5mC at 10); result = 6290 a.u.
Strand = GATGAAGTCAGCCTCCTGGCTGACTTCATC; result = 2760 a.u.
Strand = CGTGACGTCAGCCTCCTGGCTGACGTCACG (5mC at 36); result = 22200 a.u.
Strand = GACGACGTCAGCCTCCTGGCTGACGTCGTC (5mC at 10 34); result = 5940 a.u.
Strand = GCTGACCGCAGCCTCCTGGCTGCGGTCAGC (5mC at 14 30); result = 2610 a.u.
Strand = GCTGACGTCAGCCTCCTGGCTGACGTCAGC (5mC at 38); result = 12200 a.u.
Strand = ACGACCGCGTGCCTCCTGGCACGCGGTCGT (5mC at 9 15 29 35); result = 2970 a.u.
Strand = CATGACGTCAGCCTCCTGGCTGACGTCATG (5mC at 8); result = 20000 a.u.
Strand = ACGCGGTCGTGCCTCCTGGCACGACCGCGT (5mC at 9 11 15 29 35); result = 2830 a.u.
Strand = GATCACGTCAGCCTCCTGGCTGACGTGATC; result = 4680 a.u.
Strand = GATGACGTCAGCCTCCTGGCTGACGTCATC (5mC at 16); result = 12400 a.u.
Strand = GATGACATCAGCCTCCTGGCTGATGTCATC; result = 5420 a.u.
Strand = AATGACGTCAGCCTCCTGGCTGACGTCATT; result = 20700 a.u.
Strand = ACCGCGTCGTGCCTCCTGGCACGACGCGGT (5mC at 9 10 15 29); result = 3180 a.u.
Strand = GCTGACGTCAGCCTCCTGGCTGACGTCAGC (5mC at 31); result = 4310 a.u.

Sample 3 — technique: protein-binding microarray; form: double-stranded DNA, one strand shown; matrix: in vitro; tested at: 250 nM; setting: 60-bp whole probe; together with: salmon DNA 0.4 mg/ml; baseline: random background probes; reading: higher = stronger binding; quantity: log fluorescence; all sequences stand within: GCCTAGCAC … GTCTTGATTCGCTTGACGCTGCTG
Target: Interferon regulatory factor 5, full length, phosphomimetic (IRF5, Homo sapiens, UniProt Q13568-2, residues 1-514, K96S/S451D/S453D/S456D/S462D)
Strand = TTAGGTTTCCGTTCCGGTTAGTGCTAG; result = 2.54 z-score
Strand = TTAGGTTCCGGTTTGGGTTAGTGCTAG; result = 1.53 z-score
Strand = TTAGGTATCGACTGTCGGTTAGTGCTA; result = 3.39 z-score
Strand = GACGATCTCAGCCTCGAGACGTGCTAG; result = -0.215 z-score
Strand = GGAAGTCCCATGTTGCAGACTGTGCTA; result = -0.651 z-score
Strand = CTAGGTATCGGGTTTCGGTTAGTGCTA; result = 7.9 z-score
Strand = TTAGAGCTGAGTCTCGATTAGTGCTAG; result = 0.448 z-score
Strand = GACGATATCCTTTTCCTGACGTGCTAG; result = 0.669 z-score
Strand = TTAGGTTTCATACTGCTTTAGTGCTAG; result = 2 z-score
Strand = AGCTCCCTTTCTCTCTGTGAGTGCTAG; result = 0.86 z-score
Strand = AATGTATAACGCCATTAGCTGTGCTAG; result = 0.217 z-score
Strand = TGTTTTTGCTTTCTTTTTGCGTGCTAG; result = 3.3 z-score
Strand = TTGTTTCCATTTTCTGAATGCGTGCTA; result = 3.01 z-score
Strand = GACGGACAGGGTTTCGGGACGTGCTAG; result = 1.36 z-score
Strand = TACGAACTGAGACTGGAGACGTGCTAG; result = -0.422 z-score
Strand = GACAAACTGGGGTTTCGAGACGTGCTA; result = 1.41 z-score
Strand = GACGATATCAGACTGGTGACGTGCTAG; result = 0.396 z-score
Strand = GACGAACTGGGGACTGCAGACGTGCTA; result = -0.524 z-score
Strand = GACGATATCAGACGGGAGACGTGCTAG; result = 0.188 z-score
Strand = CTTTATGTCCTGTCTACATGGGTGCTA; result = 0.142 z-score
Strand = GAGGGTCTCGGTCTCGGGACGTGCTAG; result = -0.126 z-score
Strand = CCCAGTCTCATATTTATTAGGTGCTAG; result = 0.4 z-score
Strand = GACGATCTCAGTCTCTAGACGTGCTAG; result = -0.0864 z-score
Strand = CTAGAACTGGGGTTTCGATTAGTGCTA; result = 5.47 z-score

Sample 4 — technique: RNA Bind-n-Seq; form: RNA; matrix: in vitro; tested at: 200 nM; setting: whole 134-nt RNA, ends assumed; together with: 150 mM KCl; baseline: input library; reading: higher = stronger binding; quantity: log2 enrichment
Target: Ras GTPase-activating protein-binding protein 1, full length (G3BP1, Homo sapiens, UniProt Q13283)
Sequence of UniProt Q13283 (whole entry, looked up): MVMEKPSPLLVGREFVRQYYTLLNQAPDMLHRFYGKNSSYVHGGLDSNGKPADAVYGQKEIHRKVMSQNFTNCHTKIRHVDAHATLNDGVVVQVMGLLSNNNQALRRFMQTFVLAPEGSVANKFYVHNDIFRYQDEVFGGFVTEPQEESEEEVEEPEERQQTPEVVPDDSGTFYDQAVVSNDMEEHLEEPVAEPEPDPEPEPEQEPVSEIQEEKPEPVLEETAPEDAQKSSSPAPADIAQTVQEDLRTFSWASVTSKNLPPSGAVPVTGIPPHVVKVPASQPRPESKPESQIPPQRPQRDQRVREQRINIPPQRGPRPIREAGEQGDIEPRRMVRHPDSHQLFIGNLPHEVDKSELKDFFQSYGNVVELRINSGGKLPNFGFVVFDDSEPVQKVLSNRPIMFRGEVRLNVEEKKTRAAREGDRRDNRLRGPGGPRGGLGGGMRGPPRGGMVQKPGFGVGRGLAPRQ
All sequences stand within: GGGAGUUCUACAGUCCGACGAUC … UGGAAUUCUCGGGUGUCAAGG
Strand = UCCUCAAGUCCUGUGCUACACAUCGUAUGUACCGAAUCGGGCGGCGGGGCGGAAAGUAUUAUGUUACGCCGUUCGGAUCUGCACUUCCAG; result = -0.137
Strand = CUCAAGUCCUGUGCUACACAUCGUAUGUACCGAAUCGGGUUGGGUUGGUUGGGGAAAGUAUUAUGUUACGCCGUUCGGAUCUGCACUUCC; result = 0.981
Strand = GCAGGAAGUAAAAACAAAUGGAAAUGCUUCGGAUAGUGGCAGGGGUGGGGGUUGUUAAGGAAAGGGUGGGAUGGGAGUGGGUAAAGAGUU; result = 0.891
Strand = CUCAAGUCCUGUGCUACACAUCGUAUGUACCGAAUCGGAAAGGAAAAAGGAGGAAAGUAUUAUGUUACGCCGUUCGGAUCUGCACUUCCA; result = -0.411
Strand = CCUCAAGUCCUGUGCUACACAUCGUAUGUACCGAAUCGGUGGAAAGGUUUGGAAAGUAUUAUGUUACGCCGUUCGGAUCUGCACUUCCAG; result = -0.454
Strand = CAAGUCCUGUGCUACACAUCGUAUGUACCGAAUCGGGUUUGGGAAAGGGUUUGGGAAAGUAUUAUGUUACGCCGUUCGGAUCUGCACUUC; result = 0.617
Strand = GUCCUGUGCUACACAUCGUAUGUACCGAAUCGGGAAAAAGGGAAAGGGAAAAAAAGGGAAAGUAUUAUGUUACGCCGUUCGGAUCUGCAC; result = -0.407
Strand = UCAAGUCCUGUGCUACACAUCGUAUGUACCGAAUCGGGUUUUUGGGUGGGAGGGAAAGUAUUAUGUUACGCCGUUCGGAUCUGCACUUCC; result = 0.678
Strand = UCGGCUACACUGCCCGGAGAAUUCUCAAUGAGGAUGGCAGCCCUAACCUGGACUUCAAGCCUGAAGACCAGCCCCAUUUUGACAUCAAGG; result = 0.244
Strand = GCAGGAAGUAAAAACAAAUGGAAAUGCUUCGGAUAGUGGCAGGGGUGGGGGUUGCUAAGGAAAGGGUGGGAUGGCAGUGGGUAAAGAGUU; result = 0.661
Strand = CCUGUGCUACACAUCGUAUGUACCGAAUCGGGUUUUUUUGGUUUUUUUGGUUUUUUUGGGAAAGUAUUAUGUUACGCCGUUCGGAUCUGC; result = -1.09
Strand = CACAGACAACACGCACCCACACAGACACAGAGGGAAGGGGUUGGGAUGGGGACAGGGUACACAGCAGGGCGGGGUAGGACCCCAGCCCCU; result = 1.75
Strand = ACCAUGCAGGUGGGCAUCUUUGGGAAGUGGGGCAAAAGGGGGAUAGGGAGGGGGGUAACACUUUGGGAACAGGUGGUCCCAGGUCGUUUC; result = 0.921
Strand = CCUGUGCUACACAUCGUAUGUACCGAAUCGGGGUUUUUUUGGGGAAAAAGGGGUUUGGGGAAAGUAUUAUGUUACGCCGUUCGGAUCUGC; result = 0.145

Some of these lines once more (sample 2):
Strand = GATGGCGTCAGCCTCCTGGCTGACGCCATC; result = 3940 a.u.
Strand = GATGACGCCAGCCTCCTGGCTGGCGTCATC; result = 5100 a.u.
Strand = GCTGCGGTCAGCCTCCTGGCTGACCGCAGC (5mC at 12); result = 2670 a.u.
Strand = GCCGACGTCAGCCTCCTGGCTGACGTCGGC (5mC at 10); result = 6290 a.u.
Strand = GATGAAGTCAGCCTCCTGGCTGACTTCATC; result = 2760 a.u.
Strand = CGTGACGTCAGCCTCCTGGCTGACGTCACG (5mC at 36); result = 22200 a.u.
Strand = GACGACGTCAGCCTCCTGGCTGACGTCGTC (5mC at 10 34); result = 5940 a.u.
Strand = GCTGACCGCAGCCTCCTGGCTGCGGTCAGC (5mC at 14 30); result = 2610 a.u.
Strand = GCTGACGTCAGCCTCCTGGCTGACGTCAGC (5mC at 38); result = 12200 a.u.
Strand = ACGACCGCGTGCCTCCTGGCACGCGGTCGT (5mC at 9 15 29 35); result = 2970 a.u.
Strand = CATGACGTCAGCCTCCTGGCTGACGTCATG (5mC at 8); result = 20000 a.u.
Strand = ACGCGGTCGTGCCTCCTGGCACGACCGCGT (5mC at 9 11 15 29 35); result = 2830 a.u.
